Assay results collected from several papers.
A part holds a random share of what one study measured.

Series 1
Target: Sal-like protein 4, full length isoform B (SALL4, Homo sapiens, UniProt Q9UJQ4-2, residues 1-616)
Method: universal PBM
Form: double-stranded DNA, one strand shown
Sample: in vitro
Concentration: not given
Setting: 8-mer, flanks averaged, mean of replicates
Reading: higher = stronger binding
| Strand | E-score |
| --- | --- |
| GATACGGC | -0.194 |
| AGTCGTGG | -0.0962 |
| CCCTGGGC | -0.361 |
| CACTTGTA | 0.154 |
| ACGGCCTC | -0.25 |
| TCTCACAA | 0.153 |
| AGCGGCCG | -0.223 |
| GGAAGTAC | -0.0299 |
| ACCCGGGC | -0.379 |
| ATAACTCG | 0.262 |
| TGCCCAAA | -0.0553 |
| CACCTGAC | -0.141 |
| TTACGAAA | 0.242 |
| TCCAAAGA | -0.0114 |
| TCGCGAGA | -0.119 |
| AGACTCAC | -0.184 |
| CACAGATA | 0.122 |
| TTCATGAA | 0.238 |
| ACCGGGTC | -0.296 |
| CATCGCAG | -0.137 |
| ATTAAAAC | 0.341 |
| GCAGTAAC | -0.0681 |
| GTGATCGA | 0.0122 |
| AGAGATGC | -0.111 |
| GCCTGCCA | -0.208 |

Series 2
Target: Interferon regulatory factor 7, full length, phosphomimetic (IRF7, Homo sapiens, UniProt Q92985, residues 1-503, S101K/S471D/S472D/S475D/S476D/S477D/S483D/S484D/S487D)
Sequence of UniProt Q92985 (whole entry, unmodified, looked up): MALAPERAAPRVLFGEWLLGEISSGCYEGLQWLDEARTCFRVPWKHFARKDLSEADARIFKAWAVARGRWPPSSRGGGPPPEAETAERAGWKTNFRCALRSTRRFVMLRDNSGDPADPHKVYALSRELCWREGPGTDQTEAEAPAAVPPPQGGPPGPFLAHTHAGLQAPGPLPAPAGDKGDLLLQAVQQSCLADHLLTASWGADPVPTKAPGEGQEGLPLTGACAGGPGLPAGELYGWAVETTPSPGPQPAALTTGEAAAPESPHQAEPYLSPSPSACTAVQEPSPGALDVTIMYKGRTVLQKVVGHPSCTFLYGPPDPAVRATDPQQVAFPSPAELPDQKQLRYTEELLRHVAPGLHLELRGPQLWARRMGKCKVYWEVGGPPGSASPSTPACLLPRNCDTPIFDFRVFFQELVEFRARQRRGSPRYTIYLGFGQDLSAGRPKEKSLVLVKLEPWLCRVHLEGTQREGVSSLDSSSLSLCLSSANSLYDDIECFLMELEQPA
Method: protein-binding microarray
Form: double-stranded DNA, one strand shown
Sample: in vitro
Concentration: 250 nM
Setting: 60-bp whole probe
With: salmon DNA 0.4 mg/ml
Relative to: random background probes
Reading: higher = stronger binding
Constant ends, left off below: GCCTAGCAC … GTCTTGATTCGCTTGACGCTGCTG
| Strand | log fluorescence |
| --- | --- |
| TTAGGTACCGGTATCGGTTAGTGCTAG | 2.4 z-score |
| GACGGTTTACTACTGCTGACGTGCTAG | 0.098 z-score |
| GACGATCTCAGTATCGAGATGTGCTAG | 0.24 z-score |
| GACGGATTCGGTTCCGGGACGTGCTAG | 4.73 z-score |
| TTAGATTTCAGTTTCCATTAGTGCTAG | 4.13 z-score |
| TTAGTTATCGGGTATCGGTTAGTGCTA | 1.19 z-score |
| ACCCCAAAGAGGGGCAGTGTGTGCTAG | 0.0682 z-score |
| GGCTCCTCCCCGCTTCTGGAGTGCTAG | -0.336 z-score |
| GGTCCTCTCTCTATTCAGAGGTGCTAG | 1.08 z-score |
| TTAGATCTCTGTCTCGATTAGTGCTAG | 0.504 z-score |
| TCATCTAAGGATTTCAGACTGTGCTAG | -0.294 z-score |
| TTAGGACTGGGGATCGGTTAGTGCTAG | 0.321 z-score |
| GATGGACTGGGTATCGGGACGTGCTAG | -0.601 z-score |
| TTAGATACCAGTTTCGATTAGTGCTAG | 8.75 z-score |
| GACGATATCAGTTTCCAGACGTGCTAG | 0.755 z-score |
| CCTGGACGGGAGTGCGGTGCGTGCTAG | -1.06 z-score |
| TTAGATTTCGACTTTCGGTTAGTGCTA | 3.4 z-score |
| AGAAACTTGTATTTGTCCCTGTGCTAG | 0.365 z-score |
| TCACCTGTCCATTCCTTACTGTGCTAG | 0.236 z-score |
| TTAGTTTTCAGACTGGATTAGTGCTAG | 0.838 z-score |
| TTAGATTTCAGATCCGATTAGTGCTAG | 0.75 z-score |

Series 3
Target: Ras GTPase-activating protein-binding protein 1, full length (G3BP1, Homo sapiens, UniProt Q13283)
Sequence of UniProt Q13283 (whole entry, looked up): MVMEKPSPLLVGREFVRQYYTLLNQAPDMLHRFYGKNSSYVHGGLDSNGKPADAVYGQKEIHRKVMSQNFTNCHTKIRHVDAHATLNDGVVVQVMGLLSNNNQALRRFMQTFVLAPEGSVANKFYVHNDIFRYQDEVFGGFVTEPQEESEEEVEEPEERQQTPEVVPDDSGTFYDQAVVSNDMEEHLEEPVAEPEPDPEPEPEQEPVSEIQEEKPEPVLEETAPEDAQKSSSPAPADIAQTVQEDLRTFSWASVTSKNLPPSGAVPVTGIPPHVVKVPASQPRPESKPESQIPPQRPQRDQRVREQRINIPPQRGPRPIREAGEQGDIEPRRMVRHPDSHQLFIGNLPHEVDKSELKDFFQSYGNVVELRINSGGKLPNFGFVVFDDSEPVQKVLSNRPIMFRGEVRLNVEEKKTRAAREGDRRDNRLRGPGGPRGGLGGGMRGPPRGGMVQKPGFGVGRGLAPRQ
Method: RNA Bind-n-Seq
Form: RNA
Sample: in vitro
Concentration: 200 nM
Setting: whole 134-nt RNA, ends assumed
With: 150 mM LiCl
Relative to: input library
Reading: higher = stronger binding
Each molecule: 7-deaza-guanosine replaces G
Constant ends, left off below: GGGAGUUCUACAGUCCGACGAUC … UGGAAUUCUCGGGUGUCAAGG
| Strand | log2 enrichment |
| --- | --- |
| ACCAUGCAGGUGGGCAUCUUUGGGAAGUGGGGCAAGGGGAAAAUAGGGAGGGGGGUAACACUUUGGGAACAGGUGGUCCCAGGUCGUUUC | 0.58 |
| GCAGGAAGUAAAAACAAAUGGAAAUGCUUCGGAUAGUGGCAGGGGUGCGGGUUGCUAAGGAAAGGGUGGGAUGGGAGUGGGUAAAGAGUU | 0.0916 |
| AAGUCCUGUGCUACACAUCGUAUGUACCGAAUCGGGUUUUUGGGUUUGGGUUUGGGAAAGUAUUAUGUUACGCCGUUCGGAUCUGCACUU | -0.773 |
| AAGUCCUGUGCUACACAUCGUAUGUACCGAAUCGGUUUUUGGUUUUUGGUUUUUGGAAAGUAUUAUGUUACGCCGUUCGGAUCUGCACUU | -1.17 |
| AAGUCCUGUGCUACACAUCGUAUGUACCGAAUCGGUGGUUUUUUUGGAAAAAAAGGAAAGUAUUAUGUUACGCCGUUCGGAUCUGCACUU | -1.13 |
| UUGUGGGAGGAUUUUGAGAUACUUAUUCUUUAUUUGAGCCAGUCUUGCAAGGUUAACUUCUCACUGGGCCUAGUGUGGUGCCCAGGUUUU | -2.02 |
| CCUGUGCUACACAUCGUAUGUACCGAAUCGGAAAAAAAGGGAAAAAAAGGGGAAAAAAAGGAAAGUAUUAUGUUACGCCGUUCGGAUCUG | -0.0524 |
| CAAGUCCUGUGCUACACAUCGUAUGUACCGAAUCGGGAAAGGGGAAAGGGGAAAGGAAAGUAUUAUGUUACGCCGUUCGGAUCUGCACUU | -0.67 |
| ACCAUGCAGGUGGGCAUCUUUGGGAAGUGGGGCAAGGGGGGGAUAGGGAGGGGGGUAACACUUUGGGAACAGGUCGUCCCAGGUCGUUUC | -0.147 |
| CACAGACAACACGCACCCACACAGACACAGAAAAAAGGGGUUGGGAUGGGGACAGGGUGCACAGCAGGGCGGGGUAGGACCCCAGCCCCU | 0.177 |
| GUCCUGUGCUACACAUCGUAUGUACCGAAUCGGGUUUUUGGGUUUUUGGGGUUUUUGGGAAAGUAUUAUGUUACGCCGUUCGGAUCUGCA | -0.256 |

Series 4
Target: Histone acetyltransferase KAT6A, winged helix 1, GST fusion (KAT6A, Homo sapiens, UniProt Q92794, residues 1-85)
Method: protein binding microarray
Form: double-stranded DNA, one strand shown
Sample: in vitro
Concentration: not given
Setting: 8-mer, flanks averaged, mean of 2 arrays, mostly near background
Relative to: not given
Reading: higher = stronger binding
Target sequence (chain): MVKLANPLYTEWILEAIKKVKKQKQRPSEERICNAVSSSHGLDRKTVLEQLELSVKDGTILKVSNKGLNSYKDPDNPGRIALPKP
| Strand | E-score |
| --- | --- |
| AGACCGAC | 0.181 |
| ACGGAGCG | 0.35 |
| CCGATACC | 0.24 |
| GCCCTCCA | -0.0115 |
| CGTAGGCC | 0.0533 |
| ACCTCCCA | -0.22 |
| CCAATGAC | -0.26 |
| CCGTCTAA | 0.0667 |
| GGCTTGCA | -0.0565 |
| AATCTCCA | -0.145 |
| AGGATAGG | -0.21 |
| ACCTAAGT | -0.12 |
| CTTTGACA | -0.222 |
| AAAATGTA | -0.105 |
| AAAAGGCG | 0.103 |
| GTCGACGA | -0.0278 |
| CAACATAC | 0.00545 |

Series 5
Target: RNA binding protein fox-1 homolog 2, RRM domain, GST-SBP tag (RBFOX2, Homo sapiens, UniProt O43251-10, residues 100-194)
Method: RNA Bind-n-Seq
Form: RNA
Sample: in vitro
Concentration: 365 nM
Setting: natural RNA segment, single round, ends assumed
Relative to: no-protein control
Reading: higher = stronger binding
Constant ends, left off below: GGGAGUUCUACAGUCCGACGAUC … UGGAAUUCUCGGGUGCCAA
Target sequence (chain): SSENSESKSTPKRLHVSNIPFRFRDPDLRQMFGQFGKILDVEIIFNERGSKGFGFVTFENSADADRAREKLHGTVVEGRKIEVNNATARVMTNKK
| Strand | RBNS enrichment (R) |
| --- | --- |
| UGAUUUCUUUAAUUUGUCCUUUUUUUCUUUGGUCUAAAACAUUAUUAAAUUUUUGUAAAUAUUUUGAUUUAAUGUGUCUUAGAUCCUCAUUAUUUUAAUACAGGAAAAGA | 1.09 |
| AUGUCCCUUUCAGAGACAGCUGAUACUUCAUUUAAAAAAAUCACAAAAAUUUGAACACUGGCUAAAGAUAAUUGCUAUUUAUUUUUACAAGAAGUUUAUUCUCAUUUGGG | 0.576 |
| GGAUUGCAGGCUCACAAUCCAUGCAGAGAACUCUGAAGCCAGCAAAUUGUACCACCAUCCCCCGCUGCUCACCAAACAUGGGCGUACUGGAAGGCUGUUAUACUCAGUGC | 0.179 |
| UCUCUUGAAUGUAGCCCCACCCUGUAGGUCCUCUCAAAGCCAGAGCCCUGUUCUUAAAUUACUAGUGAUUCUAGUAGUGACAUCGUUAGUAAUUUAACUCUAUAAUUGCA | 1.91 |
| CACCUAGACAAUAACUUAGUUUUGCAUGCUUACAUUGGUCAUCCUUUUUAUGUACAUCAUUAAUCUUCUGACAAGAAGCUGAAGUAGCACCACAGUCCAUAAUAUAUCAG | 16.1 |
| UAUUUAAUGUAGUUUCCCAUCCCUAGUCUUCUAUGUCUGUGAUGUUAAUUUCUUUUGUUGCAUAACAAAAUAAAAGAAUUAUGUAUUUUUAACUAAGGAGAGACAUACUG | 0.715 |
| GUCCUUCCCCAAAUGGGACCUGAGGAAAUAGCAGGUGUCCAGCUGAUGUGUUGGGCCUUUUCUAGGAAAGGGACCAAGCCCCUUCAAGUGGGGAGGCCCAGAGUUACCUG | 0.336 |
| AUAAUCCUACUGUGAAGCUGUCGUUGAGAACUUAGGUUGGCACGUAGCGUCUCAAGGUAUGCGUUCUCUCAAAGGAAAGCUAUGCAUCGCUGCUUCGUUGUCUGAUUUUG | 0.357 |
| GUGCAGUUCUUGGGCCCAGCCUGGCCUUCGCCAUGAGUUUGGGGAGCGAGACCCCACCUGAGACAGGCAGUAGGAGCCUGUGCUGACCUUGGGGAAUCUGAGCUUUUCCA | 0.254 |
| ACACUGGCUAUUGGUGGUGACUACUUUCUCAAGCCCUGGCUCCCCCAAGACAGUCUUUCCUAACUGCCUCCCUACUUGGAGUAGUCACAUACUCAAGUGCACACCACAGC | 0.334 |
| UGAGAGGCCACGCAGCUCCCGACCCUCCGGCCUCCUCUCGCACAUGGAAGGUAUCAGCACUUUGAGAAACAGAGGUGGGGGAACCGGGGGCCCCCCACGCCGAGGUUCCU | 0.264 |
| UGAAAAGGUACACAUGUAAAAUUUAGGAAAAUAACUAAAGUAGGGGCUGGAACCAUAAGAAGAAUGUUUAUCAGCACGUUCAUUUAUUAUUUUGGAUUUGGAACUUGGCU | 2.25 |

A few entries again (series 3):
| Strand | log2 enrichment |
| --- | --- |
| GUCCUGUGCUACACAUCGUAUGUACCGAAUCGGGUUUUUGGGUUUUUGGGGUUUUUGGGAAAGUAUUAUGUUACGCCGUUCGGAUCUGCA | -0.256 |
| ACCAUGCAGGUGGGCAUCUUUGGGAAGUGGGGCAAGGGGAAAAUAGGGAGGGGGGUAACACUUUGGGAACAGGUGGUCCCAGGUCGUUUC | 0.58 |
| CACAGACAACACGCACCCACACAGACACAGAAAAAAGGGGUUGGGAUGGGGACAGGGUGCACAGCAGGGCGGGGUAGGACCCCAGCCCCU | 0.177 |
| AAGUCCUGUGCUACACAUCGUAUGUACCGAAUCGGUUUUUGGUUUUUGGUUUUUGGAAAGUAUUAUGUUACGCCGUUCGGAUCUGCACUU | -1.17 |
| CCUGUGCUACACAUCGUAUGUACCGAAUCGGAAAAAAAGGGAAAAAAAGGGGAAAAAAAGGAAAGUAUUAUGUUACGCCGUUCGGAUCUG | -0.0524 |
| ACCAUGCAGGUGGGCAUCUUUGGGAAGUGGGGCAAGGGGGGGAUAGGGAGGGGGGUAACACUUUGGGAACAGGUCGUCCCAGGUCGUUUC | -0.147 |
| GCAGGAAGUAAAAACAAAUGGAAAUGCUUCGGAUAGUGGCAGGGGUGCGGGUUGCUAAGGAAAGGGUGGGAUGGGAGUGGGUAAAGAGUU | 0.0916 |
| UUGUGGGAGGAUUUUGAGAUACUUAUUCUUUAUUUGAGCCAGUCUUGCAAGGUUAACUUCUCACUGGGCCUAGUGUGGUGCCCAGGUUUU | -2.02 |
| AAGUCCUGUGCUACACAUCGUAUGUACCGAAUCGGGUUUUUGGGUUUGGGUUUGGGAAAGUAUUAUGUUACGCCGUUCGGAUCUGCACUU | -0.773 |
| AAGUCCUGUGCUACACAUCGUAUGUACCGAAUCGGUGGUUUUUUUGGAAAAAAAGGAAAGUAUUAUGUUACGCCGUUCGGAUCUGCACUU | -1.13 |
| CAAGUCCUGUGCUACACAUCGUAUGUACCGAAUCGGGAAAGGGGAAAGGGGAAAGGAAAGUAUUAUGUUACGCCGUUCGGAUCUGCACUU | -0.67 |
